Measured values pooled from the literature.
Numbered parts are unrelated; each lists some results of a single study.
Sequence of UniProt P54753 (whole entry, looked up): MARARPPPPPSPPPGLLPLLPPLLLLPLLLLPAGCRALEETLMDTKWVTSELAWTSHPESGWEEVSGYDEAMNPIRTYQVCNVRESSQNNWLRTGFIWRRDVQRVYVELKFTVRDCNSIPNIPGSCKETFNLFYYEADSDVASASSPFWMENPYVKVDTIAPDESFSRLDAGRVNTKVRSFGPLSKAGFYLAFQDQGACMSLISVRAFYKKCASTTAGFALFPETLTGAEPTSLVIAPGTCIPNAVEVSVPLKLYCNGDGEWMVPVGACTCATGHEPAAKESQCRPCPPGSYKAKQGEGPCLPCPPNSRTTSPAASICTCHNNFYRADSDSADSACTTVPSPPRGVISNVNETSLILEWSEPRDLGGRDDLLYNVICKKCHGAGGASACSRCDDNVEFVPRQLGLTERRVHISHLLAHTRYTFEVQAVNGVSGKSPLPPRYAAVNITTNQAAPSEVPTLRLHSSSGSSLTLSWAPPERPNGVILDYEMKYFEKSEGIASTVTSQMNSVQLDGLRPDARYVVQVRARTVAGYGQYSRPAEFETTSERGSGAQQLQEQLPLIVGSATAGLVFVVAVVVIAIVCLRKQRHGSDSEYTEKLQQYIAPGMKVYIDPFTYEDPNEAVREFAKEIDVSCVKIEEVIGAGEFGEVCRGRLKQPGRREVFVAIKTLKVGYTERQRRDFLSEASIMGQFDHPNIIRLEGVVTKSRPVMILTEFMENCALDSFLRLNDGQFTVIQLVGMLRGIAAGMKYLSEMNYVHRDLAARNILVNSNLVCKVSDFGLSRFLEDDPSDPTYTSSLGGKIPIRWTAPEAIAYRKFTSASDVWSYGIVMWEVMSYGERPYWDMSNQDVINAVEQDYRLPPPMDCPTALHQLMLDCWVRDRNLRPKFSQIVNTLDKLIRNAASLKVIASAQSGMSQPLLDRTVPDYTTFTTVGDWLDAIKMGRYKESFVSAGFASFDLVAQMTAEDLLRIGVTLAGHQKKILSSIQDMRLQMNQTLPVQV
Sequence of UniProt Q16832 (whole entry, looked up): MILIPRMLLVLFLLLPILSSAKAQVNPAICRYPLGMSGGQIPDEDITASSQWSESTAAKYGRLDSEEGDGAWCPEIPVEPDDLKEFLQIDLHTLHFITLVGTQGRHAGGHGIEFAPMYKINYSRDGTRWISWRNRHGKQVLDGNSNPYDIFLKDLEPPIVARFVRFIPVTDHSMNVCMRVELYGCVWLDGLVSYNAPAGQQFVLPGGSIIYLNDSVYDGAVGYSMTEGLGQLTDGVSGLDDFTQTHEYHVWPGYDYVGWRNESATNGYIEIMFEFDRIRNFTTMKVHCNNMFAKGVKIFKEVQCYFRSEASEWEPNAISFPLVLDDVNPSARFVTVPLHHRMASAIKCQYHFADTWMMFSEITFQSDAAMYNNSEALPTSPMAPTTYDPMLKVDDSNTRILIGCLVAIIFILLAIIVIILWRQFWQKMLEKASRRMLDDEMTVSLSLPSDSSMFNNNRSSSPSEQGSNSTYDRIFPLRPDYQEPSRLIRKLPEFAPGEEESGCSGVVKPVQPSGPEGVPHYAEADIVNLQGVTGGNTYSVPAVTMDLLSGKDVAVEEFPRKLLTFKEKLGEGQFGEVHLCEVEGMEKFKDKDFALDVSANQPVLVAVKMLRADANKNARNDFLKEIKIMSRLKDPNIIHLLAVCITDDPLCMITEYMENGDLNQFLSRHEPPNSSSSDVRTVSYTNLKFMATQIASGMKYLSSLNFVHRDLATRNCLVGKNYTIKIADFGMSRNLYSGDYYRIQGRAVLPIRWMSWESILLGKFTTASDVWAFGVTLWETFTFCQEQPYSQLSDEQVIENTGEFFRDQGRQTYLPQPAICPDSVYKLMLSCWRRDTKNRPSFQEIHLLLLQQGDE
Sequence of UniProt O43318 (whole entry, looked up): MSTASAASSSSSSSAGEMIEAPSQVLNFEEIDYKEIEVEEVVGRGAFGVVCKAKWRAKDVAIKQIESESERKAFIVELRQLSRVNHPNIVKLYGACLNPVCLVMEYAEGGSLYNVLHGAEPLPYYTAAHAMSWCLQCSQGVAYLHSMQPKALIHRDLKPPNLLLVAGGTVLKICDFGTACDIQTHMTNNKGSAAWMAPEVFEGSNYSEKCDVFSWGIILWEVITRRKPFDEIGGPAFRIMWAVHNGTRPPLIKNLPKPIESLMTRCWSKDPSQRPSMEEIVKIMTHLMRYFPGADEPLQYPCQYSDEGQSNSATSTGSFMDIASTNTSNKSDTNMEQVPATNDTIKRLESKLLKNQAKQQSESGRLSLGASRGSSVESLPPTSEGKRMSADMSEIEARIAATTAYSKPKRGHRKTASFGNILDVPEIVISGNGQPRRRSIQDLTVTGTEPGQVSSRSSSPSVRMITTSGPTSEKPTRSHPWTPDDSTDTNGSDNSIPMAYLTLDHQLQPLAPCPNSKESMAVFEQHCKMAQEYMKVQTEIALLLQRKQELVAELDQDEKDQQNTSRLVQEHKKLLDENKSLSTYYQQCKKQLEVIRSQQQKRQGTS
Sequence of UniProt P31152 (whole entry, looked up): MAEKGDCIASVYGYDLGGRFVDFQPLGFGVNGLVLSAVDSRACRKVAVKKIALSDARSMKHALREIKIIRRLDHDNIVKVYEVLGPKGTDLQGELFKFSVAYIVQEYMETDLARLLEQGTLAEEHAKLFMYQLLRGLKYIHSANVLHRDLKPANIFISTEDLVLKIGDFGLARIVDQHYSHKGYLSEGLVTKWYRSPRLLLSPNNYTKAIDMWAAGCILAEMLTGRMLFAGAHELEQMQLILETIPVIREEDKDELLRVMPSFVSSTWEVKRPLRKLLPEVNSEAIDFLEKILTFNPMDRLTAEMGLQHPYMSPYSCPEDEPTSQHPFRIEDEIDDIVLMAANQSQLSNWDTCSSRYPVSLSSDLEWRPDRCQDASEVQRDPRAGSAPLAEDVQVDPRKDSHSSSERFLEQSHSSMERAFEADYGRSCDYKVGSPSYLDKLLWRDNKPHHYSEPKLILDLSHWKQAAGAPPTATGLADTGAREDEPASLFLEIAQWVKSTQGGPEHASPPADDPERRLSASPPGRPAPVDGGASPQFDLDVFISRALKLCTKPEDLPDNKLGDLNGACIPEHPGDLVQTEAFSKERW
Sequence of UniProt Q9UM73 (whole entry, looked up): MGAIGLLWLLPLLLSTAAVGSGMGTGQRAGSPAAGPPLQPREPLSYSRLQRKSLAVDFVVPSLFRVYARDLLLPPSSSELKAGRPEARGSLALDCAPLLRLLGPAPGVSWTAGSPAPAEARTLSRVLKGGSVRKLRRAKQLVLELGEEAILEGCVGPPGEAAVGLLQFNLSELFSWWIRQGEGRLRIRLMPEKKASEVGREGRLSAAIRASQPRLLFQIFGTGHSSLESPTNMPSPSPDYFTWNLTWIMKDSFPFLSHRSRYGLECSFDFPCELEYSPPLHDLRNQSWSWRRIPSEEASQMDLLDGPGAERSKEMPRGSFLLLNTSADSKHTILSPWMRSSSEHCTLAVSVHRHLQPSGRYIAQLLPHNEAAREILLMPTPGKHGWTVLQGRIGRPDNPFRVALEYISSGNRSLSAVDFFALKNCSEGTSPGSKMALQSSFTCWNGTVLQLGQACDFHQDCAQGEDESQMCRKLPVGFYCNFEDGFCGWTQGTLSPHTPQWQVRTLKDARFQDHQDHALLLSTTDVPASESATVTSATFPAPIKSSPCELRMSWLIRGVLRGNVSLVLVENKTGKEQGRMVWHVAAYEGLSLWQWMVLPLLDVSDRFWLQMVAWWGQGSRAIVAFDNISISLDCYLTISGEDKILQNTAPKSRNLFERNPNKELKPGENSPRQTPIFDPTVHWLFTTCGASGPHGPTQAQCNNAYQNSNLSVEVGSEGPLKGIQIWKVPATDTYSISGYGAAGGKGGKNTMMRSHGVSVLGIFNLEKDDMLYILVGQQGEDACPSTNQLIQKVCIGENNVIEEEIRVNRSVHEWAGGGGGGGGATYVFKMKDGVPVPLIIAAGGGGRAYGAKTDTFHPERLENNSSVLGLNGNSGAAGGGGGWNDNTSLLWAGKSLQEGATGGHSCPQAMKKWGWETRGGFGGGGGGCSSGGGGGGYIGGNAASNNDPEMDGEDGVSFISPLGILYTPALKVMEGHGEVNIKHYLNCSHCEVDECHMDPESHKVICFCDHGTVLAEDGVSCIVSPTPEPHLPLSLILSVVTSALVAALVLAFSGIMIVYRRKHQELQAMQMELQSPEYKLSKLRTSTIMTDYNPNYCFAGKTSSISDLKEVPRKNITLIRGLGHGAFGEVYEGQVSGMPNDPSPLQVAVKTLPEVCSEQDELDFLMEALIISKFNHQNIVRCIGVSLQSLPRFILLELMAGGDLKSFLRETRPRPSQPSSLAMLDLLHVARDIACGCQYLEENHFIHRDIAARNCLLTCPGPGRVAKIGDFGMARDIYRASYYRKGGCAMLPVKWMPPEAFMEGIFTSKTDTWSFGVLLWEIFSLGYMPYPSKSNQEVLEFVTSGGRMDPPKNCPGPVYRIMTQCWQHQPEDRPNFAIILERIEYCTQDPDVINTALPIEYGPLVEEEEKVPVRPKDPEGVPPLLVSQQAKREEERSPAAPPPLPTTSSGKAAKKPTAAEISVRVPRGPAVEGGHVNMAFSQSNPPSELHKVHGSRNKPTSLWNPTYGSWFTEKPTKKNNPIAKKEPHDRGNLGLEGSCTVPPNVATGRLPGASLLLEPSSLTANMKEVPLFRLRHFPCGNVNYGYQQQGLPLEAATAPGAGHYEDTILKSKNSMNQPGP
Sequence of UniProt O94768 (whole entry, looked up): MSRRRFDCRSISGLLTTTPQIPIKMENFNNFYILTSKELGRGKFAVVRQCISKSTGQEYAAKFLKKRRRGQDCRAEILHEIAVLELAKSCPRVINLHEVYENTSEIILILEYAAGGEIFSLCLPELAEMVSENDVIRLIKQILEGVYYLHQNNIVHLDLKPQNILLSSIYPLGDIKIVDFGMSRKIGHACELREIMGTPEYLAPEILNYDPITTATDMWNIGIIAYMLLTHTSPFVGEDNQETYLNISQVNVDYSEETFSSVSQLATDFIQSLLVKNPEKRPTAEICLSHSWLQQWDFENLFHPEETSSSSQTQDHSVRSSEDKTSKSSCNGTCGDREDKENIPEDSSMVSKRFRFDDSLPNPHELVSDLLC

Set 1
SMILES: Cc1ccc(NC(=O)c2ccnc(C(F)(F)F)c2)cc1-c1cc(OCCO)nc(N2CCOCC2)c1
Observed: binding
Method: competition with immobilised ligand
Tested at: 1 µM
Endpoint: remaining binding
EPHB3 (Homo sapiens, UniProt P54753): 91%
CDKL2 (Homo sapiens, UniProt Q92772): 96%
DDR2 (Homo sapiens, UniProt Q16832): 16%

Set 2
Cell line: mouse MPNST tumor cells
Method: high-content nuclear imaging
Measured: cell number
Tested at: 10 µM
Time: 12 h
Setting: mean of 2 replicates
Baseline: plate mean
Direction: higher = more cells
Endpoint: nuclei count
CCCNC(C)C(=O)Nc1c(C)csc1C(=O)OC (stereo not drawn): 0.804 z-score
O[C@@H](COc1cccc2ncccc12)CN1CCN([C@@H]2c3ccccc3[C@@H]3[C@H](c4ccccc42)C3(F)F)CC1: -4.14 z-score
CN(C)CCCCSC(=N)N: 0.743 z-score

Set 3
Structure (SMILES): COc1ccc(-c2c(Nc3ccccn3)[nH]c3c(C4=CCCCC4)c(-c4ccccc4)nn3c2=O)cc1
Matrix: plasma
Route: oral
Endpoint: mean plasma concentration
human; 200 mg once daily, 3 h, cycle 1: 6960 ng/mL
human; 100 mg once daily, 2 h, cycle 1: 4170 ng/mL
measured: S-adenosylmethionine; human patients; 400 mg once daily, 6 h, cycle 1: 20.7 ng/mL

Set 4
Species: human
Matrix: microsomes or S9
Tested at: 2 µM
Time: 0.5 h
Endpoint: remaining compound
COc1ccc(C(=O)N2CCn3c(nnc3[C@@H]3C[C@@H](O)CN3C(=O)C(C)C)C2)c(C)c1: > 100%
Cc1oc(C)c(C(=O)OC(C)C(=O)N2CC(C)OC(C)C2)c1Br (stereo not drawn): 82.3%
Cc1c(NC(=O)c2ccc(Cl)cc2)c(=O)n(-c2ccccc2)n1C: 83.5%
Cc1c(C(=O)O)nnn1-c1cccc2cnccc12: > 100%

Set 5
SMILES: CSc1cccnc1N1CCN(Cc2nc3ccccc3[nH]2)CC1
Observed: cell-free assay
Method: competition with immobilised ligand
Tested at: 1 µM
Endpoint: remaining binding
STK35 (Homo sapiens, UniProt Q8TDR2): 100%
STK17B (Homo sapiens, UniProt O94768): 100%
FLT3 (Homo sapiens, UniProt P36888, R834Q): 100%
ALK (Homo sapiens, UniProt Q9UM73): 70%
PTK6 (Homo sapiens, UniProt Q13882): 88%
MAPK4 (Homo sapiens, UniProt P31152): 100%
ANKK1 (Homo sapiens, UniProt Q8NFD2): 92%
PRKACA (Homo sapiens, UniProt P17612): 92%
CHEK1 (Homo sapiens, UniProt O14757): 94%
PIK3CA (Homo sapiens, UniProt P42336, E545A): 96%
CSNK1G1 (Homo sapiens, UniProt Q9HCP0): 100%
LRRK2 (Homo sapiens, UniProt Q5S007, G2019S): 92%
Tyrosine-protein kinase ABL1, non-phosphorylated (ABL1, Homo sapiens, UniProt P00519, F317I): 100%
MAPK6 (Homo sapiens, UniProt Q16659): 100%
CDK9 (Homo sapiens, UniProt P50750): 97%
MAPK3 (Homo sapiens, UniProt P27361): 99%
MAP3K7 (Homo sapiens, UniProt O43318): 74%
SRPK3 (Homo sapiens, UniProt Q9UPE1): 100%
DAPK1 (Homo sapiens, UniProt P53355): 100%

Set 6
Organism: Sarcocystis neurona
Observed: parasite growth
Tested at: 10 µM
Setting: secondary screen
Endpoint: inhibition
C[C@H]1C[C@H]2[C@@H]3CCC4=CC(=O)C=C[C@]4(C)[C@@]3(Cl)[C@@H](O)C[C@]2(C)[C@@]1(O)C(=O)CO: -0.6%
COc1cc(CNC(=O)CCCC/C=C\C(C)C)ccc1O: -65.1%
Nc1ccc(S(=O)(=O)c2ccc(N)cc2)cc1: -23.7%

Set 7
Cell line: A-375
Tested at: 100 µM
Time: 36 h
Endpoint: viability
Cc1cn(-c2cc(NC(=O)c3ccc(C)c(Nc4nccc(-c5cccnc5)n4)c3)cc(C(F)(F)F)c2)cn1: 1.52%
CO[C@@]1(NC(=O)Cc2cccs2)C(=O)N2C(C(=O)O)=C(COC(N)=O)CS[C@@H]21: 113%
CCOc1ccc(Cc2nccc3cc(OCC)c(OCC)cc23)cc1OCC: 43.4%

Other studies, line by line
CC(C)n1cnc(-c2ccc(F)cc2)c1-c1ncc(C(=O)Nc2ccc(N3CCN(C)CC3)cc2)[nH]1 — grade 5 soft tissue infection (human, idiopathic pulmonary fibrosis; 30 mg once daily, trial, treatment-emergent): 0%

Excerpt of the above (set 5):
PIK3CA (Homo sapiens, UniProt P42336, E545A): 96%
CSNK1G1 (Homo sapiens, UniProt Q9HCP0): 100%
LRRK2 (Homo sapiens, UniProt Q5S007, G2019S): 92%
Tyrosine-protein kinase ABL1, non-phosphorylated (ABL1, Homo sapiens, UniProt P00519, F317I): 100%
MAPK6 (Homo sapiens, UniProt Q16659): 100%
CDK9 (Homo sapiens, UniProt P50750): 97%
